Measurements from different studies.
Lines come from different studies, so protocols differ.
Target: cGMP-dependent protein kinase 2 (PRKG2, Homo sapiens, UniProt Q13237)
One construct used (Q13237 1-762): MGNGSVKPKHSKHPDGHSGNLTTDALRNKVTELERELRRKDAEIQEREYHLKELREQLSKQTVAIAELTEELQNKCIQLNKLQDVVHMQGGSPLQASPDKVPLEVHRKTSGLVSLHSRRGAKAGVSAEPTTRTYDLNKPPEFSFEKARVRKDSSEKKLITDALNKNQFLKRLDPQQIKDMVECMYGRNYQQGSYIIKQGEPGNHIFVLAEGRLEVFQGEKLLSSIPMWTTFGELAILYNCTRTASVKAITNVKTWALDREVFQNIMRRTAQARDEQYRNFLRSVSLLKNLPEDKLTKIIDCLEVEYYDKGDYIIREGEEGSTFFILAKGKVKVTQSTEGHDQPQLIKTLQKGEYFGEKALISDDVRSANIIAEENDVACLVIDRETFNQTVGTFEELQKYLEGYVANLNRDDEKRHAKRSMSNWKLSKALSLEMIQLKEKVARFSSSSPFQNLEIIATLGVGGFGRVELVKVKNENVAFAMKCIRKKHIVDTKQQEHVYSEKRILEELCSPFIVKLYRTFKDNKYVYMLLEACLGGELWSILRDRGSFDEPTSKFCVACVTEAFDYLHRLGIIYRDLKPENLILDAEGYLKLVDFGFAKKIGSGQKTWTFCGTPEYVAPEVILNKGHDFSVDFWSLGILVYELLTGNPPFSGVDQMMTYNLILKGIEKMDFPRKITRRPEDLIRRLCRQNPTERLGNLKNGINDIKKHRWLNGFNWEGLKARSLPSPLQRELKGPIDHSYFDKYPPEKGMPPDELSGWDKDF

Compound | assay | conditions | how to read | endpoint | value
CN1CC[C@@H](COc2cnc(C#N)cc2-c2ccn3nc(NC(=O)C4CC4)cc3c2)C1 | enzyme activity, inhibitor | 1 µM | – | inhibition | 3%
CNC(=O)C1CCN(c2cc(C)c(F)cc2NC(=O)c2ccc(-c3cc(O)ccc3C)c(C)c2)CC1 | binding, competition with immobilised ligand | 1 µM | – | remaining binding | 94%
CCn1cc(C(=O)O)c(=O)c2c(N)c(F)c(NC3CCCCC3)cc21 | kinase activity | 0.1 µM, added: ATP at Km | – | inhibition | -6.2%
CCN1CCN(Cc2ccc(C(=O)Nc3ccc(C)c(NCc4cnc5[nH]ccc5c4OC)c3)cc2C(F)(F)F)CC1 | binding, competition with immobilised ligand | 1 µM | – | remaining binding | 100%
COc1cc(Nc2nccc(-c3cnn4nc(OC)ccc34)n2)cc(C(F)(F)F)c1 | binding, competition with immobilised ligand | 1 µM | – | remaining binding | 83%
NC(=O)C[C@H]1CCc2sc3ncnc(O[C@H]4CC[C@H](N5CCOCC5)CC4)c3c21 | enzyme activity, inhibitor | 10 µM | – | inhibition | 3%
C=CC(=O)N1CCc2ccc(-n3c(=O)ccc4cnc5ccc(-c6cnn(C)c6)cc5c43)cc21 | KINOMEscan | 1 µM | relative to: DMSO control | remaining binding | 87%
C=CC(=O)Nc1cccc(-c2cnc3[nH]cc(C(=O)NC(C)(C)C)c3n2)c1 | enzyme activity, inhibitor | 0.1 µM | – | inhibition | 1%
Cc1ccc(-c2c(/C=C(\C#N)C(=O)NC(C)C)n(CCCO)c3ncnc(N)c23)cc1 | cell-free assay, competition with immobilised ligand | 1 µM | – | remaining binding | 98%
Nc1ncc2c(n1)-c1c([nH]c3ccc(C4=CCOCC4)cc13)CCC2 | binding, competition with immobilised ligand | 1 µM | – | remaining binding | 94%
CN1CCN(Cc2ccc(-c3ccc(CO[C@H]4CCC[C@@H]4NC(=O)c4cc(-c5cnn(C)c5)cnc4N)cc3)cc2)CC1 | enzyme activity, inhibitor | 0.1 µM | – | inhibition | 6%
Cc1cnc2nc1Nc1cccc(c1)COC/C=C/COCc1cc(ccc1OCCN1CCOCC1)N2 | binding | 0.1 µM | – | remaining binding | 100%
